Experimental data pooled from the literature.
Every numbered part comes from another study and shows a few of its results, in no order. Several values in a cell are separate wells, animals, samples, runs or records.
UniProt P42336, sequence (whole entry, unmodified, looked up): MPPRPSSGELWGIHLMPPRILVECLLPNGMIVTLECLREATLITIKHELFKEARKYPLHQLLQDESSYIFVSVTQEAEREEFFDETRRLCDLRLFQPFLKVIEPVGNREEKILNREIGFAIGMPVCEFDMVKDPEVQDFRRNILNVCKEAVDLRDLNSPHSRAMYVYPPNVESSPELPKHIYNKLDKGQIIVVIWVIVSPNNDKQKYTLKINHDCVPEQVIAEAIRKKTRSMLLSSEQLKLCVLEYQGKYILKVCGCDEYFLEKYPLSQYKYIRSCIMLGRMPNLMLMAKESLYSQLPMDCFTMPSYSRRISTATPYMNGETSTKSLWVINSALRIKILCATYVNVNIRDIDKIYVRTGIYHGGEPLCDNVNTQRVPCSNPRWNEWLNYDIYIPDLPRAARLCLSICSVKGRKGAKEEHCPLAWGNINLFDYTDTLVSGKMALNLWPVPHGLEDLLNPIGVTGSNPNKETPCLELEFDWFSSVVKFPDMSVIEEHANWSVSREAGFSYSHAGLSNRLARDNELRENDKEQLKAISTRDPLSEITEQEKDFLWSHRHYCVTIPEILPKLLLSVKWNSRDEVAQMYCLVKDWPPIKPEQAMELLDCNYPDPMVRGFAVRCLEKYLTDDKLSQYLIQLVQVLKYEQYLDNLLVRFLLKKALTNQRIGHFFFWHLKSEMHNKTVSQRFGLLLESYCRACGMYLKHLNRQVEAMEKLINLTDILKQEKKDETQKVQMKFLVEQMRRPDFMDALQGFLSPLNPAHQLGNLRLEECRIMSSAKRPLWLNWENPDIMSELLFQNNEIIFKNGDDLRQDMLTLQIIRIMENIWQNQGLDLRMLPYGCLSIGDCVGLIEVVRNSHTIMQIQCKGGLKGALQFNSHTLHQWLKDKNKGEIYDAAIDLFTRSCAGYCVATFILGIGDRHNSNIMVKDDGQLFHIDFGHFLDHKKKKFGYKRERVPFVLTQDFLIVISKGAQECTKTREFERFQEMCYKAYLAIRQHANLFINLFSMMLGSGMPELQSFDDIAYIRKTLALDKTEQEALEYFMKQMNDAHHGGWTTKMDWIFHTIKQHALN
UniProt Q86Z02, sequence (whole entry, looked up): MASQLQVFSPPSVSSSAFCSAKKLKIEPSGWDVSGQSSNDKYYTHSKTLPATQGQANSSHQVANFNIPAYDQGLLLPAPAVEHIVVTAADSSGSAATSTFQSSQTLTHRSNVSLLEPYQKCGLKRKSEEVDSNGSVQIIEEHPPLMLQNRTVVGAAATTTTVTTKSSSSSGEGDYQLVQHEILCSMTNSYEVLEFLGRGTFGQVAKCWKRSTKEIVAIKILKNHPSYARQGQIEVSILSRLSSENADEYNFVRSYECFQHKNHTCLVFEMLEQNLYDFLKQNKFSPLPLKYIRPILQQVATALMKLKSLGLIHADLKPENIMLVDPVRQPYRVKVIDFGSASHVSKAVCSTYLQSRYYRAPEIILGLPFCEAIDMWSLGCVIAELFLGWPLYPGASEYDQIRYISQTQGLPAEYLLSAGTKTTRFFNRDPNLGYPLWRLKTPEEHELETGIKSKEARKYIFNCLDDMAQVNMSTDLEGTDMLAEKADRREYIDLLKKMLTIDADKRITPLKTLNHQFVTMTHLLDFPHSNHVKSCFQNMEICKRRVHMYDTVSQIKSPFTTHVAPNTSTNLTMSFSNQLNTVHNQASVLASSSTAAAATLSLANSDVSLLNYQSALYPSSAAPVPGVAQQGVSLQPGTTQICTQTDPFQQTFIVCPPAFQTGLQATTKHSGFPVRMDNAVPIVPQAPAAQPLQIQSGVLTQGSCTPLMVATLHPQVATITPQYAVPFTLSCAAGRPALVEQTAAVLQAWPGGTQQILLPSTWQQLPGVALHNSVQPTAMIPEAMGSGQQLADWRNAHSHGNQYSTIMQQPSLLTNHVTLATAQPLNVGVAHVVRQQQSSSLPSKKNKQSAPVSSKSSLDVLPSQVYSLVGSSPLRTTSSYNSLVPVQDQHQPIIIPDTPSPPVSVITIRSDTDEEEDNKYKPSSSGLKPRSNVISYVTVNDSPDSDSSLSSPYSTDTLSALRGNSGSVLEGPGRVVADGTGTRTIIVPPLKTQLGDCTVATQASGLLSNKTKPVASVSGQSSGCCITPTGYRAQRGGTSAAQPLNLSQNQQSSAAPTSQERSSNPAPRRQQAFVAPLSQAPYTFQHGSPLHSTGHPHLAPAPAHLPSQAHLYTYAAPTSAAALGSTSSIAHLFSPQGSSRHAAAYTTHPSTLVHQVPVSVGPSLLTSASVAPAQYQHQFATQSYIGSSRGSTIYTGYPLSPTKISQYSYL
UniProt Q9NY57, sequence (whole entry, looked up): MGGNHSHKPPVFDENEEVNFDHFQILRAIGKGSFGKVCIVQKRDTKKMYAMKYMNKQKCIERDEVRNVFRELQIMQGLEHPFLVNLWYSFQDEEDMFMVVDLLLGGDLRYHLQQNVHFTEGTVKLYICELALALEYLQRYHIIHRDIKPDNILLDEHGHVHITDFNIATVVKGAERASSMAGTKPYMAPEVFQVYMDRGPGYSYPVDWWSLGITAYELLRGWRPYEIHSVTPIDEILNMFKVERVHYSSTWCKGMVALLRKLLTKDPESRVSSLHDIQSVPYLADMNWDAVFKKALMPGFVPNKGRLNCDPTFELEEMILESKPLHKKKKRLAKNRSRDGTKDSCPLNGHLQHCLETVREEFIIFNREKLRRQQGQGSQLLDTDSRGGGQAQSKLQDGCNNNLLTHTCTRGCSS
UniProt Q9Y6R4, sequence (whole entry, looked up): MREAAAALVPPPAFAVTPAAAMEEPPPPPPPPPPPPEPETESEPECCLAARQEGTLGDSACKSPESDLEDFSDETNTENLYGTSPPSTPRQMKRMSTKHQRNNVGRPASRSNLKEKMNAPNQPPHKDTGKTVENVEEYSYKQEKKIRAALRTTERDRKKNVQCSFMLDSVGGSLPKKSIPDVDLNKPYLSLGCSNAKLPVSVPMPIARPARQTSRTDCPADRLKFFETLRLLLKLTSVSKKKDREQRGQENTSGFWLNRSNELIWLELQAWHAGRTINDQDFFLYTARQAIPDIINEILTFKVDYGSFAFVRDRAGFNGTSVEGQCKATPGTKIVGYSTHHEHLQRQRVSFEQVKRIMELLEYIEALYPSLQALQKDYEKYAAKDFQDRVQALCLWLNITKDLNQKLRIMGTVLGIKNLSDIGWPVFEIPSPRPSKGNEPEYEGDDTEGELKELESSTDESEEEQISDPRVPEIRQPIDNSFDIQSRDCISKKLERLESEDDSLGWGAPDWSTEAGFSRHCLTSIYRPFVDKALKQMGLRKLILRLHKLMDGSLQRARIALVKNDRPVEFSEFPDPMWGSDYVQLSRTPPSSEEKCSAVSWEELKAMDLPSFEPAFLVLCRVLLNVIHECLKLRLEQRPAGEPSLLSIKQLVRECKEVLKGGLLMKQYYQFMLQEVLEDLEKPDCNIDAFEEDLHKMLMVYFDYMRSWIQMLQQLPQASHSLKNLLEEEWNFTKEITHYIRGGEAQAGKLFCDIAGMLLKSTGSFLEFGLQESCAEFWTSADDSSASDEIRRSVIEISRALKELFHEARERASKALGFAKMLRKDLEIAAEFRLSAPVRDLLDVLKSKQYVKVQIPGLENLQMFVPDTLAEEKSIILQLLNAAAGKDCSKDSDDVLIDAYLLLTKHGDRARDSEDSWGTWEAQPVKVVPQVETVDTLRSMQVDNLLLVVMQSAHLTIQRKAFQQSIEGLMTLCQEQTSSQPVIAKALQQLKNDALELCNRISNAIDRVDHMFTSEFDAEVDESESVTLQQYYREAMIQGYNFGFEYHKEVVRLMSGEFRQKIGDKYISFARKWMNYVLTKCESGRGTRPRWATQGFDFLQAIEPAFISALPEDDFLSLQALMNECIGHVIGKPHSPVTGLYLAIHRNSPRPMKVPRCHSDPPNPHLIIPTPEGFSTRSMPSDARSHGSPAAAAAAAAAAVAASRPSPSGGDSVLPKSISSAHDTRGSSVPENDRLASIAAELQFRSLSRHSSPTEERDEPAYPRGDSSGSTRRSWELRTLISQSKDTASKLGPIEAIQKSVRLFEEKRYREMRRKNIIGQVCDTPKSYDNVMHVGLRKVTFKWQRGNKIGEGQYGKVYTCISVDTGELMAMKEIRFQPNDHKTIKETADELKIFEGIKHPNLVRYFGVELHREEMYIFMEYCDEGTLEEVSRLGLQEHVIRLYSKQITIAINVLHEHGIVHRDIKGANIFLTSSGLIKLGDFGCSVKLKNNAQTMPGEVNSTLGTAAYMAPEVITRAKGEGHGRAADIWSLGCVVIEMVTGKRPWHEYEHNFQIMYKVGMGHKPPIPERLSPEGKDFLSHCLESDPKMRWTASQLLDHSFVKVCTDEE
UniProt P19784, sequence (whole entry, looked up): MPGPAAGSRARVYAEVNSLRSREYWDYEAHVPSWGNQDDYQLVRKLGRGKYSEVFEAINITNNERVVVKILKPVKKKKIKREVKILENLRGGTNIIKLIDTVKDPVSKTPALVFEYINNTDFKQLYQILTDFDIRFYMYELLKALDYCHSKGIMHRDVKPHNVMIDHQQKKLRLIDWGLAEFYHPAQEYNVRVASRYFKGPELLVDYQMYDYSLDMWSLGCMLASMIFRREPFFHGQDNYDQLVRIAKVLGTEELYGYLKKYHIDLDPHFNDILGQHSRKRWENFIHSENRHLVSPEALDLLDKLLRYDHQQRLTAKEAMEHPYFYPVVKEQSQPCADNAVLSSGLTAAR

Study 1
Target: Casein kinase I isoform gamma-1 (CSNK1G1, Homo sapiens, UniProt Q9HCP0)
UniProt Q9HCP0, sequence (whole entry, looked up): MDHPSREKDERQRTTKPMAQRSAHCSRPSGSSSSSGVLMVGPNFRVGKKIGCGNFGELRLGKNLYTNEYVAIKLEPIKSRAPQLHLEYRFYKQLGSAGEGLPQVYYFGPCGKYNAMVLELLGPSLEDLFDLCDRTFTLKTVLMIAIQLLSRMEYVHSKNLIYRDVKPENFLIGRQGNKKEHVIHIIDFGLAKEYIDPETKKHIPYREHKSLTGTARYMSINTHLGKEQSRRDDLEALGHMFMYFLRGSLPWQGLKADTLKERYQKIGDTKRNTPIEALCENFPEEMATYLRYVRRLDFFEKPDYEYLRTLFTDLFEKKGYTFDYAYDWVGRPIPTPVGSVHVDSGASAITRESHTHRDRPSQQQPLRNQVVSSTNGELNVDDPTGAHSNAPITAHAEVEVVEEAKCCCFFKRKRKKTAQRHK
Effect on: enzyme activity
Action: inhibitor
Tested at: 0.5 µM
Relative to: control
SMILES | remaining activity
Cn1sc(=O)n(Cc2ccccc2)c1=O | 95.2%
Cc1ccc(NC(=O)c2ccc(CN3CCN(C)CC3)cc2)cc1Nc1nc(-c2cccnc2)cs1 | 92.4%
Cc1cccc(-c2[nH]c(C(C)(C)C)nc2-c2ccc3c(c2)OCO3)n1 | 79.4%
O=C(O)c1ccc2c3c1cccc3c(=O)n1c3ccccc3nc21 | 99.5%
O=C1NC(=O)C(c2cn(CCCO)c3ncccc23)=C1c1cnccn1 | 101%
O=C(Nc1cccc(Nc2cc(Nc3cccc(C(F)(F)F)c3)ncn2)c1)C1CC1 | 94.8%
COc1ccc(CNC(=O)Nc2ncc([N+](=O)[O-])s2)cc1 | 97.8%
Cn1c2ccccc2c2c3c(c4c5ccccc5n(CCC#N)c4c21)CNC3=O | 93.3%
C#Cc1cccc(Nc2ncnc3cc(OCCOC)c(OCCOC)cc23)c1 | 104%
O=c1c2ccccc2[nH]c(=S)n1CCN1CCC(=C(c2ccc(F)cc2)c2ccc(F)cc2)CC1 | 92.5%
OCC(O)CCON=C1C(c2c(O)[nH]c3ccccc23)=Nc2ccccc21 (stereo not drawn) | 89.2%
Oc1ccc(-c2nc(-c3ccncc3)c(-c3ccc(F)cc3)[nH]2)cc1 | 97.3%
COc1ccc(C(=O)Nc2sc3c(c2C(N)=O)CCCC3)cc1OC | 90.1%
N#CC(C#N)=C(N)/C(C#N)=C/c1ccc(O)cc1 | 93.4%
COc1ccc(OC)c2c(=S)c3ccccc3[nH]c12 | 120%

Study 2
SMILES: CC(C)(C(=O)O)[C@H](NC(=O)Cc1cccc(I)c1)c1ccc2oc(=O)[nH]c2c1
Method: Incucyte 3D growth
Tested at: 30 µM
Reading: higher = more growth
cell line | time | spheroid area
MEL-JUSO | 66.52 h | 1.19e+07 a.u. and 1.23e+07 a.u. and 1.31e+07 a.u. and 1.29e+07 a.u. and 1.36e+07 a.u. and 7.76e+06 a.u.
PC-9 | 6 h | 2.31e+08 a.u. and 2.16e+08 a.u. and 2.17e+08 a.u. and 2.29e+08 a.u. and 2.14e+08 a.u. and 2.12e+08 a.u.
PC-9 | 198 h | 1.67e+09 a.u. and 1.74e+09 a.u. and 1.7e+09 a.u. and 1.76e+09 a.u. and 1.65e+09 a.u. and 1.73e+09 a.u.
IPC-298 | 198 h | 2.81e+07 a.u. and 3.56e+07 a.u. and 2.76e+07 a.u. and 2.85e+07 a.u. and 2.26e+07 a.u. and 3.09e+07 a.u.
KP-4 | 18 h | 1.03e+07 a.u. and 9.67e+06 a.u. and 1.24e+07 a.u. and 8.98e+06 a.u. and 1.09e+07 a.u. and 1.23e+07 a.u.
A375 | 66 h | 3.97e+07 a.u. and 4.4e+07 a.u. and 3.16e+07 a.u. and 1.67e+07 a.u. and 4.03e+07 a.u. and 4.36e+07 a.u.

Study 3
Species: human
Matrix: microsomes or S9
Tested at: 2 µM
Time: 0.5 h
SMILES | remaining compound [%]
CN1CCN(c2ccc(C(=O)Nc3c[nH]c4ncnc(-c5cnn(C6CCN(C(=O)OC(C)(C)C)CC6)c5)c34)cc2)CC1 | > 100
CN(C)c1ccc(C(O)CF)c(S(N)(=O)=O)n1 (stereo not drawn) | 96.7
O=C(c1csc(-c2ccsc2)n1)N(Cc1ncc[nH]1)c1cccc(F)c1 | 4.98
COC(=O)C12CCC(=O)N1CCc1c2n(C(=O)OC(C)(C)C)c2ccccc12 (stereo not drawn) | 79.6
O=C(Cn1c2ccccc2c2ncn(Cc3nc(C4CC4)no3)c(=O)c21)NC1CCCCC1 | 42.1
CC(C)[C@H](NC(=O)c1ccc2nc(-c3ccc(NC(=O)NCc4ccccc4)cc3)cn2c1)C(=O)O | 49.1
Cc1cc(C)cc(N(C(=O)Cc2cccs2)C(C(=O)NC2CCCC2)c2ccncc2)c1 (stereo not drawn) | 5.36
CN(C)CCCNC(=O)c1c(OCC2CC2)cc(=O)n2c1CCCCC2 | 96.6
COc1cccc(CN(C)c2oc(C(C)(C)C)nc2C#N)c1 | 9.46
COc1ccc(CN2CCC3(CCNCC3)C2)cc1Cn1cncn1 | 19.3

Study 4
Compound: CCCCN(CCCC)C(=O)CN1C[C@H](c2cc(OC)c3c(c2)OCO3)[C@@H](C(=O)O)[C@@H]1CC(C)(C)CCC
Effect on: cell-free assay
Method: competition with immobilised ligand
Tested at: 1 µM
target | remaining binding
Phosphatidylinositol 3-kinase C2 domain-containing subunit gamma (PIK3C2G, Homo sapiens, UniProt O75747) | 100%
Serine/threonine-protein kinase 32B (STK32B, Homo sapiens, UniProt Q9NY57) | 81.7%
Phosphatidylinositol 4,5-bisphosphate 3-kinase catalytic subunit alpha isoform (PIK3CA, Homo sapiens, UniProt P42336, I800L) | 52.9%
Mitogen-activated protein kinase kinase kinase 4 (MAP3K4, Homo sapiens, UniProt Q9Y6R4) | 88.7%
Homeodomain-interacting protein kinase 1 (HIPK1, Homo sapiens, UniProt Q86Z02) | 100%
Bone morphogenetic protein receptor type-2 (BMPR2, Homo sapiens, UniProt Q13873) | 80%
Tyrosine-protein kinase JAK1, JH1 (JAK1, Homo sapiens, UniProt P23458) | 98%
Casein kinase II subunit alpha' (CSNK2A2, Homo sapiens, UniProt P19784) | 98.4%
STE20/SPS1-related proline-alanine-rich protein kinase (STK39, Homo sapiens, UniProt Q9UEW8) | 100%
Mitogen-activated protein kinase kinase kinase kinase 2 (MAP4K2, Homo sapiens, UniProt Q12851) | 54.4%
Serine/threonine-protein kinase MARK2 (MARK2, Homo sapiens, UniProt Q7KZI7) | 100%

Excerpt of the above (study 1):
SMILES | remaining activity
O=C(Nc1cccc(Nc2cc(Nc3cccc(C(F)(F)F)c3)ncn2)c1)C1CC1 | 94.8%
COc1ccc(CNC(=O)Nc2ncc([N+](=O)[O-])s2)cc1 | 97.8%
Cn1c2ccccc2c2c3c(c4c5ccccc5n(CCC#N)c4c21)CNC3=O | 93.3%
C#Cc1cccc(Nc2ncnc3cc(OCCOC)c(OCCOC)cc23)c1 | 104%
O=c1c2ccccc2[nH]c(=S)n1CCN1CCC(=C(c2ccc(F)cc2)c2ccc(F)cc2)CC1 | 92.5%
